Assay results collected from several papers.
Every numbered part comes from another study and shows a few of its results, in no order. Positions count from the first letter of the parent shown.

Series 1
Target: ABI1, truncated, D143A, DHFR fusion (Arabidopsis thaliana)
Technique: DHFR PCA, deep sequencing
Medium: yeast
Notes: methotrexate growth selection, single substitutions
With: (+)-ABA 0.032 µM
Baseline: wild-type fitted maximum
Reading: higher = stronger binding
Starting sequence: PYL1, truncated, DHFR fusion (Arabidopsis thaliana); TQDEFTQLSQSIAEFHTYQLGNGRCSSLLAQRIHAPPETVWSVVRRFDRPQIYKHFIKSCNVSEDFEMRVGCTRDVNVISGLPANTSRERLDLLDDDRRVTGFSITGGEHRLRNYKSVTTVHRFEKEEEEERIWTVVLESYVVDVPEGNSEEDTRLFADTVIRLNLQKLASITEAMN
For `W41M`, “relative binding score” read -3.93%.
`R155F`: “relative binding score” -9.03%.
`N22V`: “relative binding score” 35.5%.
For `V62N`, “relative binding score” read -9.32%.
`S63Q` — result for “relative binding score”: 16%.
`E152Q` — result for “relative binding score”: 13.2%.
For `V70A`, “relative binding score” read 6.95%.
For `N85S`, “relative binding score” read 52.5%.
`L138S`: “relative binding score” 6.8%.
`E129Y`: “relative binding score” 14.8%.
For `E147D`, “relative binding score” read 30.2%.
For `D92R`, “relative binding score” read 0.234%.
For `E64Q`, “relative binding score” read 30.9%.
`N77T` — result for “relative binding score”: 64.7%.
Under “relative binding score”, `I133M` is recorded as 18.9%.

Series 2
Target: Sal-like protein 4, full length isoform B (SALL4, Homo sapiens, UniProt Q9UJQ4-2, residues 1-616)
Technique: universal PBM
Form: double-stranded DNA, one strand shown
Medium: in vitro
Tested at: not given
Notes: 8-mer, flanks averaged, mean of replicates
Reading: higher = stronger binding
With `TTATTAAA` the E-score was 0.451.
For `AATTGAAG`, the E-score was 0.25.
`GGTCTATA` has an E-score of 0.205.
The E-score of `ATGAGAGG` is reported as -0.11.
`GCGTTAGA` gave an E-score of -0.0809.
`CGTTTTTC` has an E-score of 0.125.
`CCGTTACA` gave an E-score of 0.0263.
The E-score of `ACCTTTCT` is reported as 0.0413.
With `CCGCACCC` the E-score was -0.3.
The E-score of `GTGTCAAC` is reported as -0.162.
`AGCGCAGA` has an E-score of -0.297.
For `GGGTTTAA`, the E-score was 0.093.
`CCACCTAC` has an E-score of 0.0274.
`TCTACAAA` has an E-score of 0.163.
With `CCTTTGCG` the E-score was -0.0142.
With `TCTTCTAA` the E-score was 0.147.

Series 3
Target: CCNA1, cyclin fold, Cln2 fusion (human)
Technique: yeast growth competition, sequencing
Medium: yeast
Notes: weak parent motif
Baseline: not given
Reading: higher = stronger binding
Starting sequence: MICAL3 docking peptide (human); LQLRRQLSFSEDS
`LQLRRQLCFSEDS [S8C]` — result for “normalised enrichment score”: 0.445.
`LQLRRQLSPSEDS [F9P]` — result for “normalised enrichment score”: 0.338.
`LQLRRQASFSEDS [L7A]`: “normalised enrichment score” 0.0989.
`LQLRRWLSFSEDS [Q6W]`: “normalised enrichment score” -0.289.
`LQLRRQLSFSECS [D12C]` — result for “normalised enrichment score”: 0.395.
For `LQLRRQLSFSEYS [D12Y]`, “normalised enrichment score” read 0.111.
`LQLRKQLSFSEDS [R5K]`: “normalised enrichment score” 0.182.
For `LQTRRQLSFSEDS [L3T]`, “normalised enrichment score” read 1.19.
Under “normalised enrichment score”, `LQLRRQTSFSEDS [L7T]` is recorded as 0.0728.
`LQLRRQLSGSEDS [F9G]` — result for “normalised enrichment score”: 0.408.
`LQLRRQCSFSEDS [L7C]`: “normalised enrichment score” -0.0182.
`LQQRRQLSFSEDS [L3Q]`: “normalised enrichment score” 0.254.
Under “normalised enrichment score”, `LMLRRQLSFSEDS [Q2M]` is recorded as 0.107.
For `LQLLRQLSFSEDS [R4L]`, “normalised enrichment score” read 0.0903.
For `LQLRRQKSFSEDS [L7K]`, “normalised enrichment score” read 0.0927.
For `LHLRRQLSFSEDS [Q2H]`, “normalised enrichment score” read 0.198.

Series 4
Target: RNA binding protein fox-1 homolog 2, RRM domain, GST-SBP tag (RBFOX2, Homo sapiens, UniProt O43251-10, residues 100-194)
Technique: RNA Bind-n-Seq
Form: RNA
Medium: in vitro
Tested at: 365 nM
Notes: natural RNA segment, single round, ends assumed
Baseline: no-protein control
Reading: higher = stronger binding
Target sequence (chain): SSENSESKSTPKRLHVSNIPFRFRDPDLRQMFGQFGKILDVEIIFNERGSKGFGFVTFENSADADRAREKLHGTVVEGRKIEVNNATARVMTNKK
`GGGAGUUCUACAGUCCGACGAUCCAGAAGGCACCAGACCAGCCCAGCAGCAAAUGCUCAUCUUUGGGAACAUAGGAAGCUUUACCUUGGGGAAGGUAUGCUUUACAAAUGUCCAGUGUAAUGAAUGUUUGGAAUGGAAUUCUCGGGUGCCAA`: “RBNS enrichment (R)” 0.559.
For `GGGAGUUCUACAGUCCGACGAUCGGGGCCUUCCUUGUCCCCCCGUGGACUCUCCAAUGUGGGACCUCGGUCCUGGGCUCUCACCGGGGUCUGUCAUUGGCUCUGCACAGGCUGCAUGAACCCACGCACCUGUCUGGAAUUCUCGGGUGCCAA`, “RBNS enrichment (R)” read 0.867.
`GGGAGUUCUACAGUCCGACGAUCGAAAGUAAGGGAUGCCUGGCCUAGCGGCUCGGCACAGAGGGAGGGGCAUCCCUGAGCUAAUCCCCACCCUCCAGUACAUUCCUAGGUCCUGGUCAUUUAGUUCAGAACAGUGGAAUUCUCGGGUGCCAA`: “RBNS enrichment (R)” 0.255.
`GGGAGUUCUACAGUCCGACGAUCAUUUUUUAAAGGGAACUUUUUACAUGACGUUUGGAAUAACAGCAUAUUGCUGACCAGUCAGUGUCAUCUCCCGGGUGAAUUUUGAUGUCACGUUAUAGUCAAAUGAGUUAUGGAAUUCUCGGGUGCCAA` — result for “RBNS enrichment (R)”: 0.692.
For `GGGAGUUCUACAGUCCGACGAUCUUUCUAGUAAGGGGCUGUAGUUAGAUGACUCUUGUAUAGAUUUCAGUUACUUAUGCUGAAGAUCCCUGUGCUAGGUUAGCCUUUAGAAGUUAGAGUUGUGGAAAGCAGUAUGGAAUUCUCGGGUGCCAA`, “RBNS enrichment (R)” read 0.876.
For `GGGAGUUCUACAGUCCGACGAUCCAGCUGCUCCUAAGGACACAGGGCUGGGUUGGUAAAGAGAAGGCUAUGGUUGACUUCUUGCUUGUGCUUCCCACUCUCCCCGACUUCAUUCACUCAAACUUCUUUAAAUGUGGAAUUCUCGGGUGCCAA`, “RBNS enrichment (R)” read 0.529.
`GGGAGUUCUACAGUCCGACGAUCACCCAGCCUGGGCCUGGAUGCUCUGUGAAUACAUUAUCUUGCGAUGUUGGGUUAUUCCAGCCAAAGACAUUUCAAGUGCCUGUAACUGAUUUGUACAUAUUUAUAAAAAUUGGAAUUCUCGGGUGCCAA` — result for “RBNS enrichment (R)”: 0.493.
For `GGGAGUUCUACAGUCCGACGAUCGAAGGUUUUACUGUAUUGUUGCACAACUUUAAGAUAAUUUUUGUCUCAAUGUCAACUUUUUUCACUGAAUAAAAAUUUAACUGGGUCAAGAAAACACCUCUUUGAAAAUCUGGAAUUCUCGGGUGCCAA`, “RBNS enrichment (R)” read 0.518.
Under “RBNS enrichment (R)”, `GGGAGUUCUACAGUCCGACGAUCAGAUCAUUUCCCAUGCUUGCUUUGAUUUGGUCCUCAAUAAAUUAAAAUGAUCCACACUUUCACACUGCCACUUCUGACCUUCACUGCCAUCUUCAGACGGUUCCUUUUGAUGGAAUUCUCGGGUGCCAA` is recorded as 3.91.
Under “RBNS enrichment (R)”, `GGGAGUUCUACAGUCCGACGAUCUCAUGUGUAACGUGGGUCUGUUUAGCUGAGAUAGACUAGAGGAGGACACUAGAGAUGCCCAUUCCUACUCCCUCCCUUUGGUCACUAGCCACCAUUAUGGUUCCACUGGCUGGAAUUCUCGGGUGCCAA` is recorded as 0.353.
`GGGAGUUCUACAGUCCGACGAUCCUCCUUUGUUUUCCGCCUAGCGACAAGGGAUUUGCUCGCACGGCAUUGGCUCCAUCCCCUAGUCGCUGGACAGCUCUUUUUUUGAUUGGCUCAAAUCCUGUAAAGGGCUUUGGAAUUCUCGGGUGCCAA`: “RBNS enrichment (R)” 2.22.
For `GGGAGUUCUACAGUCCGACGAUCCCAGGAGUGGGGCCCCAACUCUUCCAAGAUACCAGCAUUCCUCAAGUCCUCCCAAAACUUCCUACCCACACCCUCUUCCCAAGGCCCUCAGGGGCAGAAAACAUCUCCUUUGGAAUUCUCGGGUGCCAA`, “RBNS enrichment (R)” read 0.637.

Series 5
Target: Histone acetyltransferase KAT6A, winged helix 1, GST fusion (KAT6A, Homo sapiens, UniProt Q92794, residues 1-85)
Technique: protein binding microarray
Form: double-stranded DNA, one strand shown
Medium: in vitro
Tested at: not given
Notes: 8-mer, flanks averaged, mean of 2 arrays, mostly near background
Baseline: not given
Reading: higher = stronger binding
Construct (chain): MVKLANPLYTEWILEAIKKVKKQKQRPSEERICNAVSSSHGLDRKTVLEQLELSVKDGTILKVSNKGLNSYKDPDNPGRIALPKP
`GGTGCCAC` gave an E-score of -0.0375.
The E-score of `CTGCTCTA` is reported as -0.0303.
The E-score of `ACCCCACC` is reported as -0.0208.
The E-score of `CCTACGTA` is reported as 0.0624.
With `ACGCCGTC` the E-score was 0.416.
`ATACCACA` has an E-score of -0.255.
`CAACTGGG` has an E-score of -0.211.
`CACTATCA` gave an E-score of -0.0675.
For `ACAAAAGC`, the E-score was -0.109.
`TTTCAAAA` has an E-score of -0.222.
`ATCGGGAG` has an E-score of 0.0637.
For `CCTTTCCA`, the E-score was -0.0629.
For `CCTAGTAA`, the E-score was -0.00863.
`CCCACGCA` gave an E-score of 0.0439.
`AATGCTCC` gave an E-score of -0.00392.
With `ACTGTATA` the E-score was -0.0709.
`AACCTACA` has an E-score of -0.138.
For `CGGCATGA`, the E-score was 0.296.
`AAACTGCC` gave an E-score of -0.103.

Series 6
Target: Prothrombin, mature alpha-thrombin (F2, Homo sapiens, UniProt P00734)
Technique: aptamer microarray, sandwich
Form: DNA with 2'F-ANA
Medium: in vitro
Tested at: 200 nM
Notes: whole 15-mer aptamer, many near background
With: Cy3 exosite-II aptamer, 400 nM
Reading: higher = stronger binding
Strand: GGTTGGTGTGGTTGG
`2'F-ANA at 3 6 10 11 15`: “mean fluorescence intensity” 460 a.u.
For `2'F-ANA at 1 6 7 9 11 15`, “mean fluorescence intensity” read 121 a.u.
`2'F-ANA at 1 2 3 6 8 11 13 14` — result for “mean fluorescence intensity”: 71.7 a.u.
For `2'F-ANA at 3 5 6 7 8 10 13 15`, “mean fluorescence intensity” read 60.3 a.u.
Under “mean fluorescence intensity”, `2'F-ANA at 3 4 7 9 10 11 12 13 14` is recorded as 192 a.u.
For `2'F-ANA at 2 3 6 9 10 12 14 15`, “mean fluorescence intensity” read 279 a.u.
For `2'F-ANA at 4 5 11 12 14`, “mean fluorescence intensity” read 43.2 a.u.
`2'F-ANA at 1 3 4 7 9 11 14 15`: “mean fluorescence intensity” 62.1 a.u.
`2'F-ANA at 3 6 8 10 11 12 14`: “mean fluorescence intensity” 341 a.u.
Under “mean fluorescence intensity”, `2'F-ANA at 1 3 5 6 7 11 12` is recorded as 97 a.u.
`2'F-ANA at 1 6 8 10` — result for “mean fluorescence intensity”: 53.8 a.u.
`2'F-ANA at 3 6 12 15` — result for “mean fluorescence intensity”: 1260 a.u.
Under “mean fluorescence intensity”, `2'F-ANA at 4 9 11 12 13` is recorded as 374 a.u.
Under “mean fluorescence intensity”, `2'F-ANA at 1 4 5 8 9 11 12 13 14 15` is recorded as 52.4 a.u.
`2'F-ANA at 3 5 7 11 12 15`: “mean fluorescence intensity” 171 a.u.
Under “mean fluorescence intensity”, `2'F-ANA at 7 8 11 13` is recorded as 489 a.u.
`2'F-ANA at 2 3 7 8 10 11 13` — result for “mean fluorescence intensity”: 380 a.u.
For `2'F-ANA at 3 4 5 6 7 8 9 10 11`, “mean fluorescence intensity” read 53.2 a.u.
For `2'F-ANA at 1 2 3 4 6 7 8 10 11 12 13`, “mean fluorescence intensity” read 73.2 a.u.
`2'F-ANA at 1 2 3 5 10 11 13 14 15`: “mean fluorescence intensity” 50.4 a.u.
`2'F-ANA at 1 5 7 9 12 14` — result for “mean fluorescence intensity”: 42.7 a.u.

A few entries again (series 2):
`CGTTTTTC` has an E-score of 0.125.
`GCGTTAGA` gave an E-score of -0.0809.
`AGCGCAGA` has an E-score of -0.297.
For `GGGTTTAA`, the E-score was 0.093.
The E-score of `GTGTCAAC` is reported as -0.162.
With `CCTTTGCG` the E-score was -0.0142.
With `CCGCACCC` the E-score was -0.3.
`CCGTTACA` gave an E-score of 0.0263.
For `AATTGAAG`, the E-score was 0.25.
`GGTCTATA` has an E-score of 0.205.
`TCTACAAA` has an E-score of 0.163.
`CCACCTAC` has an E-score of 0.0274.
With `TCTTCTAA` the E-score was 0.147.
The E-score of `ATGAGAGG` is reported as -0.11.
